Assay results collected from several papers.
Each line is one published result; not all experiments were run side by side. Values joined by “and” are separate records of one study, mostly repeats; a detail may differ.

`CCOC(=O)c1[nH]c(C)c(/C=C/C2=[N+]3C(=C(c4cc(OC)cc(OC)c4)c4c(C)c(I)c(/C=C/c5c(C)[nH]c(C(=O)OCC)c5C)n4[B-]3(F)F)C(C)=C2I)c1C` has an emission maximum of 731 nm (DMSO).
`Nc1nc(-n2nnc3c2CCC2C(CO)C2CC3)nc2c1ncn2C1OC(CO)C(O)C1O` (mixture of isomers) has an emission maximum of 375 nm (DMSO).
With `CCCCN1C(=O)c2cccc3c(NCCCCCCCCN4CCOCC4)ccc(c23)C1=O` the emission maximum was 559 nm (aqueous medium; pH 6).
`COC(=O)c1ccccc1-c1c2ccc(=O)cc-2oc2c1ccc1cccc(N)c12` gave an emission maximum of 530 nm and 750 nm (NaOH 12.5 mM; pH 12.1, 10% DMSO).
`Nc1ncnc2c1nc(-n1nnc3c1CCC1C(CO)C1CC3)n2C1CC(O)C(CO)O1` (mixture of isomers) has an emission maximum of 397 nm (methanol).
`CC1=CC(C)=[N+]2C1=C(CCCC(=O)NCCCCCC(=O)NCCCCCC(=O)NCCCC[C@H](NC(=O)N[C@@H](CCC(=O)O)C(=O)O)C(=O)O)c1c(C)cc(C)n1[B-]2(F)F` has an emission maximum of 506 nm (acetonitrile/water).
The emission maximum of `CC1=CC(C)=[N+]2C1=C(c1ccc(C[P+](C3CCCCC3)(C3CCCCC3)C3CCCCC3)cc1)c1c(C)cc(C)n1[B-]2(F)F` is reported as 511 nm (PBS; 10 µM, pH 7.4, 298 K, with: excitation 497 nm).
For `COc1ccc(/C=C/c2ccc(-c3ccc(C)cn3)nc2)cc1`, the emission maximum was 513 nm (aqueous HEPES buffer; pH 7.4, zinc(II) complex).
`CC1=CC(C)=[N+]2C1=C(CCCC(=O)NCCCCCC(=O)NCCCC[C@H](NC(=O)N[C@@H](CCC(=O)O)C(=O)O)C(=O)O)c1c(C)cc(C)n1[B-]2(F)F` has an emission maximum of 506 nm (acetonitrile/water).
`Cc1nc(N(C)C)ccc1N` gave an emission maximum of 432 nm (phosphate buffer with BSA; pH 8, 37 °C, 1% DMSO).
For `CC1=CC(C)=[N+]2C1=C(c1ccc(C[P+](c3ccccc3)(c3ccccc3)c3ccccc3)cc1)c1c(C)cc(C)n1[B-]2(F)F`, the emission maximum was 511 nm (PBS; 10 µM, pH 7.4, 298 K, with: excitation 497 nm).
For `COc1cc(OC)cc(C2=C3C(C)=C(I)C(/C=C/c4c[nH]c5ccccc45)=[N+]3[B-](F)(F)n3c(/C=C/c4c[nH]c5ccccc45)c(I)c(C)c32)c1`, the emission maximum was 735 nm (dichloromethane).
For `CCN(CC)c1ccc2c(-c3ccc(S(=O)(=O)NCCOCCOCCOCCOCCC(=O)NCCCCNC(=O)Cc4c(C)n(C(=O)c5ccc(Cl)cc5)c5ccc(OC)cc45)cc3S(=O)(=O)[O-])c3ccc(=[N+](CC)CC)cc-3oc2c1`, the emission maximum was 593 nm (fluorescence spectroscopy; pH 7).
`CCCCN1C(=O)c2cccc3c(NCCCCCCCCCCN4CCOCC4)ccc(c23)C1=O` gave an emission maximum of 558 nm (aqueous medium; pH 6).
With `COc1ccc2c(c1)c(CC(=O)NCCCCNC(=O)c1ccc(C(=O)[O-])c(C3=c4cc5c6c(c4Oc4c3cc3c7c4CCCN7CCC3)CCC[N+]=6CCC5)c1)c(C)n2C(=O)c1ccc(Cl)cc1` the emission maximum was 603 nm (fluorescence spectroscopy; pH 7).
With `Nc1ncnc2c1nc(-n1nnc3c1CCC1C(CO)C1CC3)n2C1OC(CO)C(O)C1O` (mixture of isomers) the emission maximum was 392 nm (methanol).
`CCn1cc(/C=C/c2sc3ccccc3[n+]2CC)c2ccccc21` has an emission maximum of 547 nm (DMSO; with: excitation 488 nm).
`NCCC(=O)N1Cc2ccccc2-c2c(nnn2-c2nc3c(N)ncnc3n2C2OC(CO)C(O)C2O)-c2ccccc21` (mixture of isomers) has an emission maximum of 452 nm (50 mM phosphate buffer; pH 7.0).
For `COc1ccc2c(c1)c(CC(=O)OCCN1CCN(CCCN3c4ccccc4Sc4ccc(Cl)cc43)CC1)c(C)n2C(=O)c1ccc(Cl)cc1`, the emission maximum was 505 nm (fluorescence spectroscopy; pH 7).
`CCn1cc(/C=C/c2ccc3ccccc3[n+]2CC)c2ccccc21` gave an emission maximum of 565 nm (DMSO; with: excitation 488 nm).
`COc1cc(OC)cc(C2=C3C(C)=C(I)C(/C=C/c4cccs4)=[N+]3[B-](F)(F)n3c(/C=C/c4cccs4)c(I)c(C)c32)c1` has an emission maximum of 682 nm (dichloromethane).
For `CCCCCCCCCCCCCCCC(=O)OCC(COP(=O)([O-])OCC[N+](C)(C)Cc1cn(-c2cc3ccc(OC(=O)Oc4ccc(CCC(=O)C(F)(F)F)cc4)cc3oc2=O)nn1)OC(=O)CCCCCCCCCCCCCCC` (centres unmarked), the emission maximum was 471 nm.
With `CCOC(=O)c1[nH]c(C)c(/C=C/c2c(I)c(C)c3n2[B-](F)(F)[N+]2=C(C)C(I)=C(C)C2=C3c2cc(OC)cc(OC)c2)c1C` the emission maximum was 639 nm (DMSO).
For `O=c1c(Br)c2oc3c(CN(Cc4ccccn4)Cc4cnccn4)c(O)ccc3nc-2c2ccccc12`, the emission maximum was 628 nm (PIPES buffer; pH 7.0, Zn(II)-saturated).
For `COCCOCCOCCOc1ccc(/C=C/C2=[N+]3C(=C(c4cc(OC)cc(OC)c4)c4c(C)c(I)c(/C=C/c5ccc(OCCOCCOCCOC)cc5)n4[B-]3(F)F)C(C)=C2I)cc1`, the emission maximum was 695 nm (DMSO).
The emission maximum of `COC(=O)c1ccccc1-c1c2ccc(=O)cc-2oc2c1ccc1cccc(OC)c12` is reported as 580 nm (phosphate buffer; pH 7.4, 10% DMSO).
`COc1ccc2cc(-c3ccc(-c4ccc(C)cn4)nc3)oc2c1` gave an emission maximum of 435 nm (acetonitrile; zinc-free ligand).
`COc1cc(OC)cc(C2=C3C(C)=C(I)C(C)=[N+]3[B-](F)(F)n3c(/C=C/c4cccs4)c(I)c(C)c32)c1` has an emission maximum of 610 nm (THF).
`CCCCN1C(=O)c2cccc3c(NCCCCCCN4CCOCC4)ccc(c23)C1=O` gave an emission maximum of 556 nm (aqueous medium; pH 6).
`COc1cc(OC)cc(C2=C3C(C)=C(I)C(/C=C/c4c[nH]c5ccc([N+](=O)[O-])cc45)=[N+]3[B-](F)(F)n3c(/C=C/c4c[nH]c5ccc([N+](=O)[O-])cc45)c(I)c(C)c32)c1` has an emission maximum of 720 nm (THF).
The emission maximum of `Cc1ccc(-c2ccc(-c3cc4sccc4o3)cn2)nc1` is reported as 459 nm (aqueous HEPES buffer; pH 7.4, zinc-free ligand).
The emission maximum of `COC(=O)c1ccccc1-c1c2ccc(=N)cc-2oc2c1ccc1cccc(OC)c12` is reported as 596 nm (phosphate buffer; pH 7.4, 10% DMSO).
The emission maximum of `CC[N+]1=C(C=CC=CC=C2N(CCCCCC(=O)O)c3ccc4c(S(=O)(=O)[O-])cc(S(=O)(=O)[O-])cc4c3C2(C)C)C(C)(C)c2c1ccc1c(S(=O)(=O)[O-])cc(S(=O)(=O)[O-])cc21.[K+].[K+].[K+]` is reported as 695 nm (100% serum; pH 7.4).
With `CCCCN1C(=O)c2cccc3c(NCCN4CCOCC4)ccc(c23)C1=O` the emission maximum was 538 nm (aqueous medium; pH 6).
`NCCC(=O)N1Cc2ccccc2-c2c(nnn2-c2nc(N)c3ncn(C4OC(CO)C(O)C4O)c3n2)-c2ccccc21` (mixture of isomers) gave an emission maximum of 428 nm (methanol).
For `CC1(C)C(=CC=C(C=CC2=[N+](CCC[N+](C)(C)C)c3ccc(S(=O)(=O)[O-])cc3C2(C)C)CCC(=O)[O-])N(CCC[N+](C)(C)C)c2ccc(S(=O)(=O)[O-])cc21`, the emission maximum was 660 nm (100% serum; pH 7.4).
For `COc1cc(OC)cc(C2=C3C(C)=C(I)C(C)=[N+]3[B-](F)(F)n3c(/C=C/c4c[nH]c5ccccc45)c(I)c(C)c32)c1`, the emission maximum was 676 nm (DMSO).
For `CCCCCCCC(=O)N[C@@H](CCCCNS(=O)(=O)c1cccc2c(N(C)C)cccc12)C(=O)N[C@H](C(=O)N[C@@H](CCN)C(=O)N[C@H]1CCNC(=O)[C@H]([C@@H](C)O)NC(=O)[C@H](CCN)NC(=O)[C@H](CCN)NC(=O)[C@H](CC(C)C)NC(=O)[C@@H](Cc2ccccc2)NC(=O)[C@H](CCN)NC1=O)[C@@H](C)O`, the emission maximum was ~485 nm (fluorescence; pH 7.0, with: LPS 3 mg/L).

Excerpt of the above:
`COc1cc(OC)cc(C2=C3C(C)=C(I)C(/C=C/c4cccs4)=[N+]3[B-](F)(F)n3c(/C=C/c4cccs4)c(I)c(C)c32)c1` has an emission maximum of 682 nm (dichloromethane).
For `CCCCCCCCCCCCCCCC(=O)OCC(COP(=O)([O-])OCC[N+](C)(C)Cc1cn(-c2cc3ccc(OC(=O)Oc4ccc(CCC(=O)C(F)(F)F)cc4)cc3oc2=O)nn1)OC(=O)CCCCCCCCCCCCCCC` (centres unmarked), the emission maximum was 471 nm.
With `CCOC(=O)c1[nH]c(C)c(/C=C/c2c(I)c(C)c3n2[B-](F)(F)[N+]2=C(C)C(I)=C(C)C2=C3c2cc(OC)cc(OC)c2)c1C` the emission maximum was 639 nm (DMSO).
